Measurements from different studies.
Values joined by “and” are separate records of one study, mostly repeats; a detail may differ. ± gives the spread as reported.

SMILES = C[C@H](O)[C@@H](NC(=O)[C@H]1CCCN1C(=O)[C@@H](CCCCN)NC(=O)[C@@H](CO)NC(=O)[C@@H](Cc1ccc(O)cc1)NC(=O)[C@@H](CC(N)=O)NC(=O)CCOCCOCCOCCNC(=O)CN1CCN(CC(=O)O)CCN(CC(=O)O)CCN(CC(=O)O)CC1)C(=O)N[C@H](CC(=O)O)C(=O)N[C@H](CCCNC(=N)N)C(=O)N[C@H](CCC(N)=O)C(=O)N[C@H](Cc1ccc(O)cc1)C(=O)N[C@H](Cc1c[nH]cn1)C(=O)N[C@H](Cc1ccccc1)C(N)=O [gallium-68 labelled]; test system = BALB/c nude mice U-87 MG tumour, stomach; conditions = intravenous, 1.85 MBq, 0.08333 h, radiolabelled; measurement = tissue uptake; result = 1.54 ± 0.1 %ID/g
SMILES = COc1ccccc1-c1n[nH]c2nc(NC3CCN(C(=O)Cc4ccc(F)cc4F)CC3)ncc12; test = bead binding, competition bead pull-down, measured: LMJF.34.3980; test system = Leishmania donovani axenic amastigote extract; conditions = 10 µM; how to read = relative to: vehicle; measurement = relative abundance; result = 1.28
SMILES = COc1cnc2cccc(N3CCc4c(cc(Cn5ccnc5)cc4-c4cn(C)nc4C(F)(F)F)C3=O)c2c1; test system = BALB/c nude mice, MV4-11 xenograft; conditions = intraperitoneal, 75 mg/kg, day 35; measurement = body weight; result = 24.2 g and 21.3 g and 24 g and 25.9 g and 21 g
SMILES = Cc1nc2cccc(OCC(C)(C)C(=O)NC(C)C)c2c(N)c1C(=O)[O-].[Na+]; tested on = Salmonella typhimurium; test = reverse mutation, plate incorporation; test system = TA98; conditions = 0.32 mg/plate, without S9; measurement = revertant colonies; result = 29 ± 3 colonies/plate
SMILES = CCCCCCCCCCCCCC(=O)N1CCN(C(=O)C2CCNCC2)CCN(C(=O)C2CCNCC2)CC1; test = dynamic light scattering; test system = deionized water; conditions = 128 µg/mL, 25 °C, intensity average; measurement = hydrodynamic diameter; result = 218 nm
SMILES = CCn1ccc(-c2cc([C@@H](C)NC(=O)c3cc(OC[C@@H]4CCN4C)ccc3C)c3ccccc3n2)n1; tested on = Vero E6; conditions = 500 µM; measurement = viability; result = 0.896% and 0.448% and 1.34%
SMILES = CC[C@H](C)[C@H](NC(=O)[C@H](C)NC(=O)[C@H](C)NC(=O)[C@H](CCC(N)=O)NC(=O)CNC(=O)[C@H](CC(C)C)NC(=O)[C@H](Cc1c[nH]cn1)NC(=O)[C@H](CCCCN)NC(=O)[C@H](C)NC(=O)CNC(=O)[C@H](CCCCN)NC(=O)[C@H](CCCNC(=N)N)NC(=O)[C@H](CC(C)C)NC(=O)[C@H](Cc1c[nH]c2ccccc12)NC(=O)[C@H](CCCCN)NC(=O)[C@H](CCCCN)NC(=O)[C@H](Cc1c[nH]c2ccccc12)NC(=O)CN)C(=O)N[C@@H](CCCCN)C(N)=O; test system = zebrafish embryos 4 hpf, E3 medium; conditions = 1 h; measurement = acute toxic concentration; result = 25 µM
SMILES = Cc1ccc(OC[C@H]2CCCN2C)cc1C(=O)N[C@H](C)c1cc(-c2cnn(C)c2)nc2ccccc12; tested on = African green monkey cells; conditions = 7.812 µM; measurement = viability; result = 99.8%
SMILES = CC[C@H](C)[C@H](NC(=O)[C@H](Cc1c[nH]c2ccccc12)NC(=O)c1ccccc1)C(=O)N[C@H](C(=O)N[C@@H](Cc1ccc(O)cc1)C(=O)N[C@@H](CCCCN)C(=O)N[C@@H](Cc1c[nH]c2ccccc12)C(=O)N1CCC[C@@H]1C(=O)N[C@@H](CCCNC(=N)N)C(=O)N[C@@H](CCCCN)C(=O)N[C@@H](CCCCN)C(=O)N[C@H](C(=O)N[C@@H](CCCNC(=N)N)C(=O)N[C@@H](Cc1ccc(O)cc1)C(=O)N[C@@H](Cc1c[nH]c2ccccc12)C(=O)N[C@H](C(=O)NCC(=O)N1CCC[C@H]1C(N)=O)[C@@H](C)O)C(C)C)C(C)C; test = circular dichroism; test system = phosphate buffer; conditions = 30 µM, pH 6.5; measurement = melting temperature; result = 73.9 °C
SMILES = CC[C@H](C)[C@H](NC(=O)[C@H](CCCCN)NC(=O)CNC(=O)[C@H](CC(C)C)NC(=O)[C@H](Cc1ccccc1)NC(=O)[C@H](CCCCN)NC(=O)[C@H](CO)NC(=O)[C@H](Cc1ccccc1)NC(=O)[C@H](Cc1c[nH]c2ccccc12)NC(=O)[C@H](CCC(N)=O)NC(=O)[C@@H](NC(=O)[C@H](Cc1ccccc1)NC(=O)CCCCCNC(=O)CN1CCN(CC(=O)O)CCN(CC(=O)O)CCN(CC(=O)O)CC1)C(C)C)C(=O)N[C@@H](CCC(=O)O)C(=O)N1CCC[C@H]1C(=O)N[C@@H](CC(=O)O)C(=O)N[C@H](C(=O)N[C@@H](CO)C(=O)N[C@@H](CCC(N)=O)C(=O)N[C@H](C(=O)N[C@@H](CCC(N)=O)C(=O)N[C@@H](CC(=O)O)C(=O)N1CCC[C@H]1C(=O)N[C@@H](CC(N)=O)C(=O)N[C@@H](CC(=O)O)C(=O)N[C@@H](CCC(N)=O)C(=O)N[C@@H](Cc1ccc(O)cc1)C(=O)N[C@@H](CCC(=O)O)C(=O)N1CCC[C@H]1C(=O)N[C@@H](Cc1ccccc1)C(=O)O)C(C)C)C(C)C [copper-64 labelled]; test system = GZMB-/- mice, CT26 tumour-bearing, stomach; conditions = 2 h, vehicle-treated; measurement = tissue uptake; result = 2.06 ± 1 %ID/g
SMILES = N=C(N)NCCC[C@@H](NC(=O)[C@H](N)Cc1c[nH]c2ccccc12)C(=O)N[C@H](CCCCN)C(=O)N[C@H](Cc1c[nH]c2ccccc12)C(=O)N[C@H](CCCNC(=N)N)C(=O)N[C@H](CCCCN)C(=O)N[C@H](Cc1c[nH]c2ccccc12)C(=O)N[C@H](CCCNC(=N)N)C(=O)N[C@H](CCCCN)C(=O)N[C@H](Cc1c[nH]c2ccccc12)C(=O)N[C@H](CCCNC(=N)N)C(=O)N[C@H](CCCCN)C(N)=O; test system = mouse; conditions = intraperitoneal, 20 mg/kg single dose, day 1; measurement = survival; result = 100%
SMILES = COc1ccc(CNc2ccc3c(c2)S(=O)(=O)C=C3)cc1; test system = male C57BL/6 mice, blood; conditions = intraperitoneal, 20 mg/kg, day 8, group average; measurement = mean corpuscular haemoglobin; result = 15.2 pg
SMILES = CSCC[C@H](NC(=O)CNC(=O)[C@H](CCCCN)NC(=O)[C@H](CC(C)C)NC(=O)[C@@H]1CCCN1C(=O)[C@H](CO)NC(=O)[C@H](Cc1c[nH]cn1)NC(=O)[C@H](Cc1c[nH]c2ccccc12)NC(=O)[C@H](CCCNC(=N)N)NC(=O)[C@H](CC(C)C)NC(=O)[C@H](CCCNC(=N)N)NC(=O)[C@H](Cc1c[nH]c2ccccc12)NC(=O)[C@H](CS)NC(=O)CCCCCNC(=O)CN1CCN(CC(=O)O)CCN(CC(=O)O)CCN(CC(=O)O)CC1)C(=O)O [copper-64 labelled]; test = ex vivo biodistribution; test system = male C57BL/6J mice, spleen; conditions = intravenous, 1.85 MBq, 0.5 h, B16-F10 tumour-bearing; measurement = tissue uptake; result = 2.39 %ID/g
SMILES = CSCC[C@@H]1NC(=O)[C@H](C(C)C)NC(=O)[C@H](CCCNC(=N)N)NC(=O)CNC(=O)[C@@H]2CCCN2C(=O)[C@@H](NC(=O)CNC(=O)[C@H](CO)NC(=O)CNC(=O)[C@H](CO)NC(=S)Nc2ccc(C[C@H]3CN(CC(=O)O)CCN(CC(=O)O)CCN3CC(=O)O)cc2)CSSC[C@@H](C(N)=O)NC(=O)[C@@H]2CCCN2C(=O)CNC(=O)[C@H](CCC(=O)O)NC(=O)[C@H](CC(=O)O)NC(=O)[C@H](CC(=O)O)NC(=O)CNC(=O)[C@H](CC(C)C)NC(=O)[C@H](Cc2c[nH]cn2)NC(=O)[C@H](CC(C)C)NC(=O)CNC(=O)[C@H](Cc2c[nH]cn2)NC1=O [copper-64 labelled]; test = dynamic PET; test system = CD rat, myocardial infarction, remote myocardium; conditions = intravenous, 18.5 MBq; measurement = clearance half-life; result = 21 ± 5.5 min
SMILES = O=C1NC2(CC2)COc2ncc(F)cc2[C@H]2COCCN2c2ccn3ncc1c3n2; test system = Sprague-Dawley rat, male, serum; conditions = oral, 10 mg/kg/day, 4 weeks daily, end of recovery period; measurement = glucose; result = 8.46 ± 0.96 mmol/L
SMILES = N#Cc1ccc(N2N=C3c4ccc(C(=O)O)cc4CCC3C2C2CCCC2)cc1Cl (stereo not drawn); test system = human, liver microsomes; conditions = 1 µM; measurement = intrinsic clearance; result = < 5 µL/min/mg
SMILES = CC(C)(C)C(=O)OCOP(=O)(OCOC(=O)C(C)(C)C)C1CCCN(O)C1=O (stereo not drawn); tested on = NCI/ADR-RES; measurement = Log10GI50; result = -6.36 log M
SMILES = CC[C@H](C)[C@H](NC(=O)[C@H](CCCNC(=N)N)NC(=O)[C@H](CCCCN)NC(=O)[C@H](Cc1ccc(O)cc1)NC(=O)[C@H](CC(=O)O)NC(=O)[C@H](C)NC(=O)CNC(=O)CCOCCOCCOCCNC(=O)CN1CCN(CC(=O)O)CCN(CC(=O)O)CCN(CC(=O)O)CC1)C(=O)N[C@H](C(=O)N[C@@H](CC(C)C)C(=O)N[C@@H](CCCCN)C(=O)N[C@H](C(=O)N[C@@H](CC(N)=O)C(N)=O)C(C)C)[C@@H](C)O [copper-64 labelled]; test = ex vivo gamma counting; test system = male C57BL/6J mouse, B16-F10 tumour, intestinal lymph node; conditions = intravenous, 1.85 MBq, 5 min; measurement = tissue uptake; result = 3.26 ± 0.866 %ID/g

For quick reference, copied from above:
SMILES = CC[C@H](C)[C@H](NC(=O)[C@H](Cc1c[nH]c2ccccc12)NC(=O)c1ccccc1)C(=O)N[C@H](C(=O)N[C@@H](Cc1ccc(O)cc1)C(=O)N[C@@H](CCCCN)C(=O)N[C@@H](Cc1c[nH]c2ccccc12)C(=O)N1CCC[C@@H]1C(=O)N[C@@H](CCCNC(=N)N)C(=O)N[C@@H](CCCCN)C(=O)N[C@@H](CCCCN)C(=O)N[C@H](C(=O)N[C@@H](CCCNC(=N)N)C(=O)N[C@@H](Cc1ccc(O)cc1)C(=O)N[C@@H](Cc1c[nH]c2ccccc12)C(=O)N[C@H](C(=O)NCC(=O)N1CCC[C@H]1C(N)=O)[C@@H](C)O)C(C)C)C(C)C; test = circular dichroism; test system = phosphate buffer; conditions = 30 µM, pH 6.5; measurement = melting temperature; result = 73.9 °C
SMILES = Cc1ccc(OC[C@H]2CCCN2C)cc1C(=O)N[C@H](C)c1cc(-c2cnn(C)c2)nc2ccccc12; tested on = African green monkey cells; conditions = 7.812 µM; measurement = viability; result = 99.8%
